Assay results from different studies.
Protocols differ between the studies behind these lines.
TMPRSS2: Transmembrane protease serine 2 (TMPRSS2, Homo sapiens, UniProt O15393)
Chain of UniProt O15393 (whole entry, looked up): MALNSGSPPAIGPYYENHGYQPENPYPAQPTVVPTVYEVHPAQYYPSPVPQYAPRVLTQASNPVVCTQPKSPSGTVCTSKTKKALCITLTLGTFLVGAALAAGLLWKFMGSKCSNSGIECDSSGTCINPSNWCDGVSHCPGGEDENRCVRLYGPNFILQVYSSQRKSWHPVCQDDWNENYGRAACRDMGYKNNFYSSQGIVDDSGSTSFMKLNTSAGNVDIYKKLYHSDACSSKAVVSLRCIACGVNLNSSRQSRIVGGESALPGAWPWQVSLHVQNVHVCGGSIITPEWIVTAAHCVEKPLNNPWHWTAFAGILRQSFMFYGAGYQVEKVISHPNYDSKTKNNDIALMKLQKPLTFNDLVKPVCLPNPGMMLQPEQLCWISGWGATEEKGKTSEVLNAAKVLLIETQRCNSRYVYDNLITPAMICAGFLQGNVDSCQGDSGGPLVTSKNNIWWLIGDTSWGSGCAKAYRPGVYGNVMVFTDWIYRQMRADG
Chain of UniProt P35968 (whole entry, looked up): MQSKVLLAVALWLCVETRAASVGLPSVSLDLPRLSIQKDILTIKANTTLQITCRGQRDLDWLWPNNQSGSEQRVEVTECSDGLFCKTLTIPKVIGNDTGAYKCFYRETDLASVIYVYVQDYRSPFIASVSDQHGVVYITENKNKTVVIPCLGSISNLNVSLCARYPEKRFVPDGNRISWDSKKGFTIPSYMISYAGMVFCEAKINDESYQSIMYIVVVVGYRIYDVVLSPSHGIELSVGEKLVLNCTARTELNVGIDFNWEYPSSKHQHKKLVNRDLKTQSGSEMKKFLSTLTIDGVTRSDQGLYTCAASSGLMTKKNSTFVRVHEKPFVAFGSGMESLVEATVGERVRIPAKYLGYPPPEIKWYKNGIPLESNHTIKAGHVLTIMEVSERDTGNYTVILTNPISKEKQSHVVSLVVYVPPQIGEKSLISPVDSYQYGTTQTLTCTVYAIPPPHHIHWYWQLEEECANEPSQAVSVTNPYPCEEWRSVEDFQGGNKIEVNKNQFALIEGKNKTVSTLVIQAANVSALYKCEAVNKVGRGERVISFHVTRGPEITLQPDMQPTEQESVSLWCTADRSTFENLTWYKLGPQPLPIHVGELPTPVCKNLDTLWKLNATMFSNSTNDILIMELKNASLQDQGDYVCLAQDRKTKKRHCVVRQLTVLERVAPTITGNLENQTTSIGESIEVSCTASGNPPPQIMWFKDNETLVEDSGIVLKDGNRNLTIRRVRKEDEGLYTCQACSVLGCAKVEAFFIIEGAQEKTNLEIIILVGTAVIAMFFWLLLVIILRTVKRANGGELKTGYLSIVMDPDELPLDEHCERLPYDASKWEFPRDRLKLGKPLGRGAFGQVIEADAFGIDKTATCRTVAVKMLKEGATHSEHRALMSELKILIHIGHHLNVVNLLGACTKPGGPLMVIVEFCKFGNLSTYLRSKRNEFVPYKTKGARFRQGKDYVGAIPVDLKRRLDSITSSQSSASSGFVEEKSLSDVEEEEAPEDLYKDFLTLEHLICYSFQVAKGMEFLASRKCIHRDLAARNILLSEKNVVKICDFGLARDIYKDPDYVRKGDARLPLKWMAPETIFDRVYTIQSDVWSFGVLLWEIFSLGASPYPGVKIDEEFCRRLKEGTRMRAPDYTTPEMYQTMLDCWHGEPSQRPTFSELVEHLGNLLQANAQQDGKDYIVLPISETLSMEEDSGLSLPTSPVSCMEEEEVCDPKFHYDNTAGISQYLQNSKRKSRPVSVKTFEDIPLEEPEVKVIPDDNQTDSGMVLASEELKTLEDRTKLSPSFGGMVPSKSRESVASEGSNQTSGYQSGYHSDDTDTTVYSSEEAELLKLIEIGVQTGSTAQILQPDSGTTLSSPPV
Chain of UniProt Q16513 (whole entry, looked up): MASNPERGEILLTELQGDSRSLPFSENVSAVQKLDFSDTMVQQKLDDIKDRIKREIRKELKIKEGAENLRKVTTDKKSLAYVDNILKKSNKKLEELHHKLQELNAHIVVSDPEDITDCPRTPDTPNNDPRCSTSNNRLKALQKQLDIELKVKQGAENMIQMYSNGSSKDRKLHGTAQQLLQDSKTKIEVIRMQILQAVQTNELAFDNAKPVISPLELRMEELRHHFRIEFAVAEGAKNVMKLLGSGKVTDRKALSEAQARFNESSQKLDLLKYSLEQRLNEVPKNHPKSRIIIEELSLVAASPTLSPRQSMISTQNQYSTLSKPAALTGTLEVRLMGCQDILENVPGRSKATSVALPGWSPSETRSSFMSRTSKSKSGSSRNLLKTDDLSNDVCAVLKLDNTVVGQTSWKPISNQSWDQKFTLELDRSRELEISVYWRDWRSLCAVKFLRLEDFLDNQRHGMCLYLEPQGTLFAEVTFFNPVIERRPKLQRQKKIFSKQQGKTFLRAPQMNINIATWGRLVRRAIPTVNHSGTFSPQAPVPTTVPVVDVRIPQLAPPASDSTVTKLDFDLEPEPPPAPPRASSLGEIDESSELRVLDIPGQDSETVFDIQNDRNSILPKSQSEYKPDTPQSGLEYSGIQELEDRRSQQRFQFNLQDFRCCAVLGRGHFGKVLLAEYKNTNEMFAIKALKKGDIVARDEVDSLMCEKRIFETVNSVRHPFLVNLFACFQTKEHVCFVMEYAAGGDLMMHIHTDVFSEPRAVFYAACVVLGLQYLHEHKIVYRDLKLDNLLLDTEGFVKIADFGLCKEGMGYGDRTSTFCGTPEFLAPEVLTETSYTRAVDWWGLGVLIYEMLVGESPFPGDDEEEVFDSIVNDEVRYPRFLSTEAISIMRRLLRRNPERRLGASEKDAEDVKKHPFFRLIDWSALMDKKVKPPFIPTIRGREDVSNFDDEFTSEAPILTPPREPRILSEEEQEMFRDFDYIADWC
Chain of UniProt P41143 (whole entry, looked up): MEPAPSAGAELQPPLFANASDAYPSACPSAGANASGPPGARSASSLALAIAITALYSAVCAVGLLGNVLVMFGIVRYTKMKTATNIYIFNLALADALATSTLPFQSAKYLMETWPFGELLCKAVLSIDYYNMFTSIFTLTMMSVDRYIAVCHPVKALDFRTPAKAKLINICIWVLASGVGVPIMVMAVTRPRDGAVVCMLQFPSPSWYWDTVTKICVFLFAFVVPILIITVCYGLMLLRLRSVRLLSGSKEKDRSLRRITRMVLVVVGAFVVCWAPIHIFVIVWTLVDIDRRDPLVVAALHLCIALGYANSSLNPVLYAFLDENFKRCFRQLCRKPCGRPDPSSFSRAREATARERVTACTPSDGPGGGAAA
Chain of UniProt P22303 (whole entry, looked up): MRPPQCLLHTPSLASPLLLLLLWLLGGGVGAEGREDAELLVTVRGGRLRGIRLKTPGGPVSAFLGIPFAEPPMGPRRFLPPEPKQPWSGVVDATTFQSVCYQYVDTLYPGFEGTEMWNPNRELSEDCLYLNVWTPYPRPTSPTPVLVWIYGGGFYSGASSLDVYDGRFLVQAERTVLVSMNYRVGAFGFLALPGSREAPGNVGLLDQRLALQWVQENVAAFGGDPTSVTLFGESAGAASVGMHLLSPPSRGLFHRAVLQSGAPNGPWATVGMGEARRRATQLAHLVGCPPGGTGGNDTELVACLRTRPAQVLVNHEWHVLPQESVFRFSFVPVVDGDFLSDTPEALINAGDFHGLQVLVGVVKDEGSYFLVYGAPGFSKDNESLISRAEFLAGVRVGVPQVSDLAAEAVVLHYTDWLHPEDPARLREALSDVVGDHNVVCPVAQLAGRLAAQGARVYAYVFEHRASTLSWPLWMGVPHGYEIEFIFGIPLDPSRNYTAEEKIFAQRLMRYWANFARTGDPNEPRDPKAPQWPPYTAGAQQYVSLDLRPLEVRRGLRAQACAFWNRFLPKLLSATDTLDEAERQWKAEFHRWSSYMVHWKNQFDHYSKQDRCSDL
Chain of UniProt P42680 (whole entry, looked up): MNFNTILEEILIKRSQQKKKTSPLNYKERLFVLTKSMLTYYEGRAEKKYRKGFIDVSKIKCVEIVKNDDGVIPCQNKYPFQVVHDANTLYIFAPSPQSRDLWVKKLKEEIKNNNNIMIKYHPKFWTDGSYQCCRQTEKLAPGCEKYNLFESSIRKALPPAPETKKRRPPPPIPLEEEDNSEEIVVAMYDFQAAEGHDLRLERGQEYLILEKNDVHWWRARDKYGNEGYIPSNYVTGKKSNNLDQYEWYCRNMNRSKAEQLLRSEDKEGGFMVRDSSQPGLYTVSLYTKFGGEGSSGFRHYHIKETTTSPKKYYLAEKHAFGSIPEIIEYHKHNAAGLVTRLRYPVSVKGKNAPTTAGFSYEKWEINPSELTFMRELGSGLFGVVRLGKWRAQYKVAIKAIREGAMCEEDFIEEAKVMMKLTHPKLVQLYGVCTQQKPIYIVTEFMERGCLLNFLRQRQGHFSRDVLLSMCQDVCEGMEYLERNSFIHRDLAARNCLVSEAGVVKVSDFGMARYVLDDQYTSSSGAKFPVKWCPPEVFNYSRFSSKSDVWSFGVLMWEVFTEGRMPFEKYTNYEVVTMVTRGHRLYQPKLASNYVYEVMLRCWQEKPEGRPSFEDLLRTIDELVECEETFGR
Chain of UniProt P21554 (whole entry, looked up): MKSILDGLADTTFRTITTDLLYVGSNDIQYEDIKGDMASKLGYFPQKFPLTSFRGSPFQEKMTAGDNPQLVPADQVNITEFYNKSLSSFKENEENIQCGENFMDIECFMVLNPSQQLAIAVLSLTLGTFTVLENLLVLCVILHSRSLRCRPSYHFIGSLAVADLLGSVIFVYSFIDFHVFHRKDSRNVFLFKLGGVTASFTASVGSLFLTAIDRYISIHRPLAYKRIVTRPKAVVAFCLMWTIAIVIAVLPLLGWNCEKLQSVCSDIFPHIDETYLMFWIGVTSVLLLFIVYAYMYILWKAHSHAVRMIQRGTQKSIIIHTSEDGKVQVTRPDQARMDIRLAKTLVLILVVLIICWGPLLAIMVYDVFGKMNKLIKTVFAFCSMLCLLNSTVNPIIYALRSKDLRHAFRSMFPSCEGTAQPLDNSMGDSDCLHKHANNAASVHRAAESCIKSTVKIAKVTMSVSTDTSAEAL

Under “activity vs control”, `N=C(N)NCCC[C@H](NC(=O)[C@H](Cc1ccccc1)NC(=O)[C@H](CCC(N)=O)NC(=O)OCc1ccccc1)C(=O)c1nccs1` is recorded as 89% (TMPRSS2; enzyme activity, inhibitor; 1 nM).
With `Nc1ncc(-c2nc(N3CCOCC3)nc(N3CCOCC3)n2)c(C(F)F)n1` the remaining binding was 100% (Serine/threonine-protein kinase N2 (PKN2, Homo sapiens, UniProt Q16513); binding, competition with immobilised ligand; 10 µM).
With `CCN(CC)CCCC[C@H](NC(=O)[C@H](CC(C)C)NC(=O)[C@H](C)NC(=O)[C@H](Cc1ccccc1)NC(=O)c1ccc(C(C)(C)C)cc1)C(=O)N[C@@H](CO)C(=O)OC` the ΔTm was 0.45 °C (Transcription initiation factor TFIID subunit 1-like, BD1 (TAF1L, Homo sapiens, UniProt Q8IZX4); thermal stability, DSF; 25 µM).
`Oc1cccc(N2[C@@H]3CC[C@H]2CN(CCCc2ccccc2)C3)c1` has an Emax of 56.8% (Delta-type opioid receptor (OPRD1, Homo sapiens, UniProt P41143); cAMP, agonist).
`CCc1ccc(N2C(=O)/C(=C3/C(=O)N(C)c4ccc(Cl)cc43)NC2=S)cc1` gave an inhibition of 6% (Acetylcholinesterase (ACHE, Homo sapiens, UniProt P22303); enzyme activity, inhibitor, Ellman; 10 nM).
The IC50 of `COC(=O)C1=CNC=C(C(=O)OC)C1c1ccc(Cl)c([N+](=O)[O-])c1` is reported as 873 nM (Dihydroorotate dehydrogenase (quinone), mitochondrial (PFF0160c, Plasmodium falciparum, UniProt Q08210, E182D); enzyme activity, inhibitor, absorbance).
`N=C(N)NCCCCC(=O)N[C@@H](CCC(N)=O)C(=O)N[C@@H](Cc1ccc(-c2ccccc2)cc1)C(=O)N[C@@H](CCCNC(=N)N)C(=O)c1nc2ccccc2s1`: “activity vs control” 94% (TMPRSS2; enzyme activity, inhibitor; 1 nM).
`COc1ncccc1-c1cnn2ccc(N3CCN(C(=O)OC(C)C)CC3)nc12` has a remaining binding of 90% (Tyrosine-protein kinase Tec (TEC, Homo sapiens, UniProt P42680); binding, competition with immobilised ligand; 1 µM).
`[2H]c1c([2H])c([C@]2([2H])CCCN2C(=O)C(C)(C)Oc2ccc3cn[nH]c3c2)c([2H])c([2H])c1C([2H])([2H])[2H]` has a remaining binding of 84% (Serine/threonine-protein kinase PLK4 (PLK4, Homo sapiens, UniProt O00444); binding, competition with immobilised ligand; 1 µM).
`CCCCCCn1c(O)c(N=NC(=O)c2ccccc2)c2ccccc21` has an Emax of roughly 55% (Cannabinoid receptor 1 (CNR1, Homo sapiens, UniProt P21554); β-arrestin recruitment, agonist; HEK293).
`N=C(N)NCCCCC(=O)N[C@@H](CCC(N)=O)C(=O)N[C@@H](Cc1ccc(CN)cc1)C(=O)N[C@H](CCCNC(=N)N)C(=O)c1nc2ccccc2s1` — result for “activity vs control”: 44% (TMPRSS2; enzyme activity, inhibitor; 1 nM).
For `Oc1cc(NC[C@H]2CCC[C@@H]2NCc2cc(Br)cc(Br)c2)nc2ccccc12`, the IC50 was 2800 nM (Dihydroorotate dehydrogenase (quinone), mitochondrial (PFF0160c, Plasmodium falciparum, UniProt Q08210); enzyme activity, inhibitor, absorbance).
`CC(=O)N[C@@H](CCC(N)=O)C(=O)N[C@@H](Cc1cscn1)C(=O)N[C@@H](CCCNC(=N)N)C(=O)c1nc2ccccc2s1` — result for “activity vs control”: 82% (TMPRSS2; enzyme activity, inhibitor; 1 nM).
With `Cc1nn(C)cc1-c1nc2c(N3CCN(Cc4ccc(Cl)cc4)CC3)c(Cl)cnc2[nH]1` the remaining binding was 83% (Serine/threonine-protein kinase/endoribonuclease IRE1 (ERN1, Homo sapiens, UniProt O75460); binding, competition with immobilised ligand; 1 µM).
For `C#Cc1n[nH]c2c(-c3cn(C(C)c4ccccn4)c(=O)[nH]c3=O)cc(F)cc12` (stereo not drawn), the inhibition was -1.1% (Vascular endothelial growth factor receptor 2 (KDR, Homo sapiens, UniProt P35968); enzyme activity, inhibitor; 1 µM).

For quick reference, copied from above:
The IC50 of `COC(=O)C1=CNC=C(C(=O)OC)C1c1ccc(Cl)c([N+](=O)[O-])c1` is reported as 873 nM (Dihydroorotate dehydrogenase (quinone), mitochondrial (PFF0160c, Plasmodium falciparum, UniProt Q08210, E182D); enzyme activity, inhibitor, absorbance).
